Values quoted from earlier work that unrelated publications cite.
Each line is one published result; not all experiments were run side by side.

SMILES	cell line	test	setting	EC50
COc1cccc(OCCCN)c1-c1cc(Nc2cnc(C#N)cn2)n[nH]1	neuroblastoma cells	cell proliferation	–	< 1 nM
FC(F)(F)Oc1ccc(Nc2cc(NCCN3CCOCC3)ncn2)cc1	Bcr-Abl transformed cells	–	–	1000 nM
C[C@@H]1CN([C@@H](C)CO)C(=O)c2cccc(NC(=O)Nc3cccc4ccccc34)c2O[C@H]1CN(C)S(=O)(=O)c1ccc2c(c1)OCCO2	INS-1E cells	cytokine-induced apoptosis, inhibitor	together with: TNF-alpha, IL-1beta and IFN-gamma	780 nM
C/C(=C\COP(=O)(O)OP(=O)(O)O)CO	Vgamma9Vdelta2 T cells with loaded K562	interferon gamma release, activator	1 h	> 100000 nM
C[C@]12CC[C@@H]3c4ccc(O)cc4CC[C@H]3[C@@H]1CC1(CCCC1)C2=O	HT-22	cell protection	together with: glutamate 20 mM	10000 nM
COc1ccc(N(C)c2nc(C)nc3[nH]ccc23)cc1	A10	microtubule depolymerization	–	5800 nM
C[C@]12CC[C@@H]3c4ccc(O)cc4CC[C@H]3[C@@H]1CC[C@@H]2O	MCF7	gene transcription, item: GREB1 and MYC	–	0.006 to 0.01 nM
C[C@]12CC=C3c4ccc(O)cc4CC[C@H]3[C@@H]1CC[C@@H]2O	HT-22	cell protection	together with: glutamate 20 mM	1570 nM
CC[C@H](CO)Nc1nc(Nc2cccc(-c3ccccn3)c2)c2ncn(C(C)C)c2n1	SH-SY5Y	cell growth	–	17200 nM
O=c1c(O)c(-c2ccc(O)c(O)c2)oc2cc(O)cc(O)c12	PC-3	cell viability, trypan blue	–	~29000 nM
C[C@]12CC[C@@H]3c4cc(C56CC7CC(CC(C7)C5)C6)c(O)cc4CC[C@H]3[C@@H]1CCC2=O	HT-22	cell protection	together with: iodoacetic acid 20 µM	216 nM
O=c1cc(COc2cc(Cl)cc(Cl)c2)[nH][nH]1	PC-12 expressing SOD1 G93A	cytoprotection	–	67 nM

A few entries again:
SMILES	cell line	test	setting	EC50
C[C@]12CC=C3c4ccc(O)cc4CC[C@H]3[C@@H]1CC[C@@H]2O	HT-22	cell protection	together with: glutamate 20 mM	1570 nM
